Measured values collected from several papers.
Lines come from different studies, so protocols differ.
B1: CCDC32 V95S/M100S/L101S/L104S (Mus musculus, UniProt Q8BS39); chain MKMFESLDSSATKSGRDLWAEICSCLPSPAQEDVSDNAFSDSFMDSHPAGESHTAAADSAVQPAGKPWAPLHDSEVYLASLEKKLRRIKGLNEESTSKDSSRTSAQAKKECWDRFLQEKLASEFFVDGLDSDERTLEHFKRWLQPDKVAISTEEVQFLIPPESQAEKPEAGDKPAAAEQ
B2: Ncoa1 260-369 (Mus musculus, UniProt P70365); sequence looked up; chain ESFMTKQDTTGKIISIDTSSLRAAGRTGWEDLVRKCIYAFFQPQGREPSYARQLFQEVMTRGTASSPSYRFILNDGTMLSAHTKCKLCYPQSPDMQPFIMGIHIIDREHS
B3: ptsO 1-85 (Escherichia coli, UniProt P0A9N0); sequence looked up; chain MTVKQTVEITNKLGMHARPAMKLFELMQGFDAEVLLRNDEGTEAEANSVIALLMLDSAKGRQIEVEATGPQEEEALAAVIALFNS
B4: EPOP 285-379 (Homo sapiens, UniProt A6NHQ4); sequence looked up; chain AKKRRLPAPPPRTAQPRRPAPTLPTTSTFSLLNCFPCPPALVVGEDGDLKPASSLRLQGDSKPPPAHPLWRWQMGGPAVPEPPGLKFWGINMDES
B5: VIP1 165-341 (Arabidopsis thaliana, UniProt Q9MA75); sequence looked up; chain SILASVSGKDSGKKNMGMGGDRLAELALLDPKRAKRILANRQSAARSKERKIRYTGELERKVQTLQNEATTLSAQVTMLQRGTSELNTENKHLKMRLQALEQQAELRDALNEALRDELNRLKVVAGEIPQGNGNSYNRAQFSSQQSAMNQFGNKTNQQMSTNGQPSLPSYMDFTKRG
B6: POL30 1-258 (Saccharomyces cerevisiae, UniProt P15873); chain MLEAKFEEASLFKRIIDGFKDCVQLVNFQCKEDGIIAQAVDDSRVLLVSLEIGVEAFQEYRCDHPVTLGMDLTSLSKILRCGNNTDTLTLIADNTPDSIILLFEDTKKDRIAEYSLKLMDIDADFLKIEELQYDSTLSLPSSEFSKIVRDLSQLSDSINIMITKETIKFVADGDIGSGSVIIKPFVDMEHPETSIKLEMDQPVDLTFGAKYLLDIIKGSSLSDRVGIRLSSEAPALFQFDLKSGFLQFFLAPKFNDEE
B7: GST-OsCIPK23 (Oryza sativa, UniProt Q6ZLP5); sequence looked up; chain MSVSGGRTRVGRYELGRTLGEGTFAKVKFARNADSGENVAIKILDKDKVLKHKMIAQIKREISTMKLIRHPNVIRMHEVMASKTKIYIVMELVTGGELFDKIASRGRLKEDDARKYFQQLINAVDYCHSRGVYHRDLKPENLLLDASGTLKVSDFGLSALSQQVREDGLLHTTCGTPNYVAPEVINNKGYDGAKADLWSCGVILFVLMAGYLPFEDSNLMSLYKKIFKADFSCPSWFSTSAKKLIKKILDPNPSTRITIAELINNEWFKKGYQPPRFETADVNLDDINSIFNESGDQTQLVVERREERPSVMNAFELISTSQGLNLGTLFEKQSQGSVKRETRFASRLPANEILSKIEAAAGPMGFNVQKRNYKLKLQGENPGRKGQLAIATEVFEVTPSLYMVELRKSNGDTLEFHKFYHNISNGLKDVMWKPESSIIAGDEIQHRRSP
B8: rga7 33-307 (Schizosaccharomyces pombe, UniProt O94466); sequence looked up; chain PKVEAILNSELGLAILNDRIKDYLLTCKELAGFFKKRSILEEESGKNLQKLAKSYLETFQSKHHSPQSFSASVITSMEIHEQLANHSLTLQKTLSAFSDQVIEFHKNAERKRKSIKEYAKKQENAYLEAVMQMDKSKSRFKGAETEYNRALDNKNTGDSQKKVGFFKPKSNAQLTKLEDEARLKAENAESDMHSKIENAQNVQKQLLCIHRPNYIKQFFSLQREIESSLIANYLRYTKLCESNTLLNGLTIRPQKPTPTNCGLQHALDNINANTD
B9: TFC1 1-649 (Saccharomyces cerevisiae, UniProt P32367); chain MPVEEPLATLSSIPDSSADQAPPLIADEFTLDLPRIPSLELPLNVSTKHSSIQKAIKMCGGIEKVKEAFKEHGPIESQHGLQLYLNDDTDSDGSKSYFNEHPVIGKRVPFRDESVILKVTMPKGTLSKNNNSVKDSIKSLKDSNKLRVTPVSIVDNTIKFREMSDFQIKLDNVPSAREFKSSFGSLEWNNFKSFVNSVPDNDSQPQENIGNLILDRSVKIPSTDFQLPPPPKLSMVGFPLLYKYKANPFAKKKKNGVTEVKGTYIKNYQLFVHDLSDKTVIPSQAHEQVLYDFEVAKKTKVYPGTKSDSKFYESLEECLKILRELFARRPIWVKRHLDGIVPKKIHHTMKIALALISYRFTMGPWRNTYIKFGIDPRSSVEYAQYQTEYFKIERKLLSSPIVKKNVPKPPPLVFESDTPGGIDSRFKFDGKRIPWYLMLQIDLLIGEPNIAEVFHNVEYLDKANELTGWFKELDLVKIRRIVKYELGCMVQGNYEYNKYKLKYFKTMLFVKESMVPENKNSEEGMGVNTNKDADGDINMDAGSQMSSNAIEEDKGIAAGDDFDDNGAITEEPDDAALENEEMDTDQNLKVPASIDDDVDDVDADEEEQESFDVKTASFQDIINKIAKLDPKTAETMKSELKGFVDEVDL
B10: TOMM20 cytosolic domain, 62-127 (Homo sapiens, UniProt Q15388); N-terminal cysteine ATTO550 label; chain CDAEAVQKFFLEEIQLGEELLAQGEYEKGVDHLTNAIAVCGQPQQLLQVLQQTLPPPVFQMLLTKLP
B11: INF2 941-1249 (Homo sapiens, UniProt Q27J81-1); FITC label; sequence looked up; chain KQQLAEEEARRPRGEDGKPVRKGPGKQEEVCVIDALLADIRKGFQLRKTARGRGDTDGGSKAASMDPPRATEPVATSNPAGDPVGSTRCPASEPGLDATTASESRGWDLVDAVTPGPQPTLEQLEEGGPRPLERRSSWYVDASDVLTTEDPQCPQPLEGAWPVTLGDAQALKPLKFSSNQPPAAGSSRQDAKDPTSLLGVLQAEADSTSEGLEDAVHSRGARPPAAGPGGDEDEDEEDTAPESALDTSLDKSFSEDAVTDSSGSGTLPRARGRASKGTGKRRKKRPSRSQEEVPPDSDDNKTKKLCVIQ
B12: prw1 1-431 (Schizosaccharomyces pombe, UniProt O14021); chain MAVSAVPHPSKQAQASEEGINQEKCINEEYKIWKKNSPFLYDLIITRALEWPCMSLQWYPEQQIFAEHGYTEQKMFLGVRADVGKYLLAVASIQLPYLNQTVPPTTMEGASAGDESSLRVNISNLYSHPESVCSAKLMPQDDSCVATVGNYHNDVLVFDKESFESYSSASESPLKPKYRLTKHTQPCTSVCWNFLSKGTLVSGSQDATLSCWDLNAYNESDSASVLKVHISSHEKQVSDVRFHYKHQDLLASVSYDQYLHVHDIRRPDASTKPARSVHAHSGPIHSVAFNPHNDFILATCSTDKTIALWDLRNLNQRLHTLEGHEDIVTKISFSPHEEPILASTSADRRTLVWDLSRIGEDQPAEEAQDGPPELLFMHGGHTSCTIDMDWCPNYNWTMATAAEDNILQIWTPSRSIWGNEQLEEDATAYLS
B13: PSMD10 1-226 G214E (Homo sapiens, UniProt O75832); chain MEGCVSNLMVCNLAYSGKLEELKESILADKSLATRTDQDSRTALHWACSAGHTEIVEFLLQLGVPVNDKDDAGWSPLHIAASAGRDEIVKALLGKGAQVNAVNQNGCTPLHYAASKNRHEIAVMLLEGGANPDAKDHYEATAMHRAAAKGNLKMIHILLYYKASTNIQDTEGNTPLHLACDEERVEEAKLLVSQGASIYIENKEEKTPLQVAKEGLGLILKRMVEG
B14: RAD1 (Homo sapiens, UniProt O60671); sequence looked up; chain MPLLTQQIQDEDDQYSLVASLDNVRNLSTILKAIHFREHATCFATKNGIKVTVENAKCVQANAFIQAGIFQEFKVQEESVTFRINLTVLLDCLSIFGSSPMPGTLTALRMCYQGYGYPLMLFLEEGGVVTVCKINTQEPEETLDFDFCSTNVINKIILQSEGLREAFSELDMTSEVLQITMSPDKPYFRLSTFGNAGSSHLDYPKDSDLMEAFHCNQTQVNRYKISLLKPSTKALVLSCKVSIRTDNRGFLSLQYMIRNEDGQICFVEYYCCPDEEVPESES
B15: lptC 24-191 (Escherichia coli, UniProt P0ADV9); sequence looked up; chain MAEKDDTAQVVVNNNDPTYKSEHTDTLVYNPEGALSYRLIAQHVEYYSDQAVSWFTQPVLTTFDKDKIPTWSVKADKAKLTNDRMLYLYGHVEVNALVPDSQLRRITTDNAQINLVTQDVTSEDLVTLYGTTFNSSGLKMRGNLRSKNAELIEKVRTSYEIQNKQTQP
UniProt O13919, sequence (whole entry, looked up): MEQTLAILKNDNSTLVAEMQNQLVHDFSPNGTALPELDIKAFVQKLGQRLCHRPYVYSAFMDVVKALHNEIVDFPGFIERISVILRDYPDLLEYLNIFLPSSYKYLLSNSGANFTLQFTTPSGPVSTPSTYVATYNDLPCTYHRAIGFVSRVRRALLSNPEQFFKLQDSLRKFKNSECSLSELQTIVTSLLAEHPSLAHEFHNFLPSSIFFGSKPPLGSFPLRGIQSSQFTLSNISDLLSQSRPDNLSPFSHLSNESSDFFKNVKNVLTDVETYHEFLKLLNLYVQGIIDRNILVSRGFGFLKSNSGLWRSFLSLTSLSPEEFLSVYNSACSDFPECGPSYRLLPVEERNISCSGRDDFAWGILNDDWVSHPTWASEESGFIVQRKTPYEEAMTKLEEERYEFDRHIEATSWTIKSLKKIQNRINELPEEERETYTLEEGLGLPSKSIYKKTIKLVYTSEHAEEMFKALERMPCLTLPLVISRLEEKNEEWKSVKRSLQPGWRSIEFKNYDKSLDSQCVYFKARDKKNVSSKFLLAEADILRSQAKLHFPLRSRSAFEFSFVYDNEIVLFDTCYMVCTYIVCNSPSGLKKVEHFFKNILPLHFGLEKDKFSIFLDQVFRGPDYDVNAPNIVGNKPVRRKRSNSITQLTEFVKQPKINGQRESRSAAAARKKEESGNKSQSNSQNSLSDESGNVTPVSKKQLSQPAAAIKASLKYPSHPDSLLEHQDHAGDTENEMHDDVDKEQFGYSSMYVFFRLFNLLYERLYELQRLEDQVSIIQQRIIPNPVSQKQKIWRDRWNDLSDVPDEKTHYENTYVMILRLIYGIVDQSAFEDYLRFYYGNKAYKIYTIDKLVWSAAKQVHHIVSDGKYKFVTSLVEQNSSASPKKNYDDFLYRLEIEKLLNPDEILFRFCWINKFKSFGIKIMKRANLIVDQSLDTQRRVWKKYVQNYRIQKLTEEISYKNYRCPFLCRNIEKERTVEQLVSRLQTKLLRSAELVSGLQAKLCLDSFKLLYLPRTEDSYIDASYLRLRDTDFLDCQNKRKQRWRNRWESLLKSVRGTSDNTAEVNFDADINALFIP
UniProt Q08345, sequence (whole entry, unmodified, looked up): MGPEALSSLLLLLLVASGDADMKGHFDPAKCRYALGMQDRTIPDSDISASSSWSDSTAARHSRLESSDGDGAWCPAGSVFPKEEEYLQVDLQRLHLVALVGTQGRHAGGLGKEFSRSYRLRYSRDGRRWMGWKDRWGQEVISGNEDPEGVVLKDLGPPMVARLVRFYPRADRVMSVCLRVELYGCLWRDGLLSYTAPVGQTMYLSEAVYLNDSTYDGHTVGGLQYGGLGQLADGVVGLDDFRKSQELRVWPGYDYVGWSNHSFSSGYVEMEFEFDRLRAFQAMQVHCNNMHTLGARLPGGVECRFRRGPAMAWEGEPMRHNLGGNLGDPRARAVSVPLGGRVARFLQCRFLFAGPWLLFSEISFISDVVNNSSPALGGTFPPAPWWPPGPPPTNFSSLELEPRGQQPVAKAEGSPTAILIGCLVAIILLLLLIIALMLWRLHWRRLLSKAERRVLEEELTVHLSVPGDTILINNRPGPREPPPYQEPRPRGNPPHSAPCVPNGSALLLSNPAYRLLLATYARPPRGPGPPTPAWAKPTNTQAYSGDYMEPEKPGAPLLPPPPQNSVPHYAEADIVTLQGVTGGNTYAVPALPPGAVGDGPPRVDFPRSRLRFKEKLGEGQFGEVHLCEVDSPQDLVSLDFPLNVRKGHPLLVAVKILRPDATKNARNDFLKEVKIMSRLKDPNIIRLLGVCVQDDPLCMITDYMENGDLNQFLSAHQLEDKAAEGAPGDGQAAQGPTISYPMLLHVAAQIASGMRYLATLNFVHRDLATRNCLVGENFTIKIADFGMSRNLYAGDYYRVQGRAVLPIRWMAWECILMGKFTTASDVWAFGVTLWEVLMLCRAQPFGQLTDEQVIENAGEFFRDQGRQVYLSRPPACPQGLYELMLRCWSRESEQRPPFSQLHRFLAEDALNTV
UniProt Q14152, sequence (whole entry, looked up): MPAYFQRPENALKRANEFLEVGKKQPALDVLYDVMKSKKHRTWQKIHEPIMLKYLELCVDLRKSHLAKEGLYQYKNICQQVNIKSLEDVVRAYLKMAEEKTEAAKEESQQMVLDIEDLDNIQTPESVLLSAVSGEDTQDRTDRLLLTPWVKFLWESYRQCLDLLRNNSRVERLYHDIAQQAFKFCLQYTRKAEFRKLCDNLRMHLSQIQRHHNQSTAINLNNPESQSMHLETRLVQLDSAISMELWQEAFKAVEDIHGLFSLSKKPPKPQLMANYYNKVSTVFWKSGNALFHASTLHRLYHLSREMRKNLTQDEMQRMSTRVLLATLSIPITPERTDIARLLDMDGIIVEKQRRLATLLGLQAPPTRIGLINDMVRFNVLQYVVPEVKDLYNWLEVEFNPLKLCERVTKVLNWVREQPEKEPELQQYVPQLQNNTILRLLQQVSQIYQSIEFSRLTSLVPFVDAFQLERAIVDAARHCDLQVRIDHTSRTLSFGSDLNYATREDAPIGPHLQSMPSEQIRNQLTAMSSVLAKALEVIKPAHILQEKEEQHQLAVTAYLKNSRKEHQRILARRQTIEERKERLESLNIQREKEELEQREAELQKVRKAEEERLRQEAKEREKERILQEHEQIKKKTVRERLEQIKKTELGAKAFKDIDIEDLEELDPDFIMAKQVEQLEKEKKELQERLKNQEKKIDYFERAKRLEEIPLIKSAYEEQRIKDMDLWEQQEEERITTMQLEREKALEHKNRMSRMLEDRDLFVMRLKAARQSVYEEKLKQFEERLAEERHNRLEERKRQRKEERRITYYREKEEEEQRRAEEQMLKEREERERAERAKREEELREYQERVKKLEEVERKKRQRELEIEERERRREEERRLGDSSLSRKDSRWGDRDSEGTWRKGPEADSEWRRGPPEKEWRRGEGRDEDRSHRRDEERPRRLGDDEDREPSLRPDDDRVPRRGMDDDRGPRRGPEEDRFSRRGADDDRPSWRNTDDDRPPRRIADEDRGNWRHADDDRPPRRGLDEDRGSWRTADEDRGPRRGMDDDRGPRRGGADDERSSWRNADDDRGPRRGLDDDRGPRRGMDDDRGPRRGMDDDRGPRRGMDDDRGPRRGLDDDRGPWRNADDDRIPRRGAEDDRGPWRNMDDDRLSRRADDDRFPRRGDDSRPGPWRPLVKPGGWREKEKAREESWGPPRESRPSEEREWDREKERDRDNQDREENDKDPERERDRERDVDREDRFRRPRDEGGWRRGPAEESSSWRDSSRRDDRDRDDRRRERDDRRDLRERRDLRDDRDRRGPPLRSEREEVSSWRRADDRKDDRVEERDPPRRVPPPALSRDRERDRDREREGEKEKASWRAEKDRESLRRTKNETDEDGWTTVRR
UniProt P23804, sequence (whole entry, looked up): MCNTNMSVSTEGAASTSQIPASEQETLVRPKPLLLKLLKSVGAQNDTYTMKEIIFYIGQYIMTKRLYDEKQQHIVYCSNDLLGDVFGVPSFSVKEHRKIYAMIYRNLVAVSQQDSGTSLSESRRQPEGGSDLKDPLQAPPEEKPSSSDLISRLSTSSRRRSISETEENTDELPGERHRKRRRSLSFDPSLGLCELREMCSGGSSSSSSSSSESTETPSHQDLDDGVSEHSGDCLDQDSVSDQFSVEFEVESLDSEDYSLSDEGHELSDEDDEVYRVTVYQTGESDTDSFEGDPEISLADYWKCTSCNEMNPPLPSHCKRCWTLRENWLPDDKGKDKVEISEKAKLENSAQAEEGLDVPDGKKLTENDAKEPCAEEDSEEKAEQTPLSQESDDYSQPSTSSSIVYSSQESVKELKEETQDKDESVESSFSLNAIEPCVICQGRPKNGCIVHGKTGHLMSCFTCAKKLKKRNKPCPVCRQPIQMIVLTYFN
UniProt P34111, sequence (whole entry, looked up): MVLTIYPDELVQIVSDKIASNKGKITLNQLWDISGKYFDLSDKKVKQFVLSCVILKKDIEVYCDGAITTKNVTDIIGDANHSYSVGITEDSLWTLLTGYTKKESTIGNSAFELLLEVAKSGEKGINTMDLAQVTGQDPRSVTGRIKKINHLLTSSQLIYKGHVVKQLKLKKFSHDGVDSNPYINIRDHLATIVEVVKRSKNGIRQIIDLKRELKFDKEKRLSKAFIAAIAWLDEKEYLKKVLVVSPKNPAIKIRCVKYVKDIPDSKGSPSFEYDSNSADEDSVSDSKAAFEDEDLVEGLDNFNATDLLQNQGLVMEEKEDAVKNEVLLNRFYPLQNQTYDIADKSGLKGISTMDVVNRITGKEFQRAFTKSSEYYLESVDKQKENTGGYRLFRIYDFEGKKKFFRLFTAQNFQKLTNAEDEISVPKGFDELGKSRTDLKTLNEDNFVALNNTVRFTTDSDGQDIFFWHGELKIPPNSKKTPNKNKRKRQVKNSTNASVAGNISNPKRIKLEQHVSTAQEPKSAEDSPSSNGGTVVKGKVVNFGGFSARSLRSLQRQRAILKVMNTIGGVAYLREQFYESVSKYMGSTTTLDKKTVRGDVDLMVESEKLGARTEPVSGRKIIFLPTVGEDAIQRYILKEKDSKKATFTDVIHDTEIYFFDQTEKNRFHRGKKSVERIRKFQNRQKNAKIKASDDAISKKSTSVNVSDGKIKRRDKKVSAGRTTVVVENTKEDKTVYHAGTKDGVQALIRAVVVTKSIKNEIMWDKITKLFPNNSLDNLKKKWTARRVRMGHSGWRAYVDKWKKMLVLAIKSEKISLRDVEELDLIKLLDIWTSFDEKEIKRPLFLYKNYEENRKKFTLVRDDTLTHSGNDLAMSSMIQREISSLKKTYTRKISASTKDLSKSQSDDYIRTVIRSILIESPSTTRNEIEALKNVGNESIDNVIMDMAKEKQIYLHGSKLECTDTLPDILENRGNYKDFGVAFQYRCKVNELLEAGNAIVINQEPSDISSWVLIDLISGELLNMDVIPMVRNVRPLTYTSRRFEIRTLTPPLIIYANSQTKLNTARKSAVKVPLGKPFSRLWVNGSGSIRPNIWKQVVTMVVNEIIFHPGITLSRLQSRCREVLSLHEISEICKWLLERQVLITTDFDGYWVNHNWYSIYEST

For `B1 (CCDC32 V95S/M100S/L101S/L104S)`, binding read “binds” (AP-2 core (Mus musculus); pull-down).
`B2 (Ncoa1 260-369)` — result for binding: “binds” (NR4A2 1-165 L46R (Homo sapiens, UniProt P43354); pull-down).
`AAAAAAGDSDSWDADAFSVEDPVRKVGGGGTAGGDRWEGEDEDEDVKD (EIF3J/GST 3-50 (Homo sapiens); Alexa Fluor 546 label; sequence looked up)` — result for binding: “binds” (eIF3 octamer PCI/MPN core 5-654 (Homo sapiens, UniProt Q14152); EMSA).
`DGVYTGLSTRNQETYETLKH (FCER1G 62-81; phosphotyrosine)` — result for binding: “binds” (SYK (Homo sapiens, UniProt P43405); FIDA; peptide).
Under binding, `B3 (ptsO 1-85)` is recorded as “binds” (ptsP 170-424 H356Q (Escherichia coli, UniProt P37177); SEC).
For `B4 (EPOP 285-379)`, binding read “binds” (SUZ12/RBBP4 SUZ12 76-545 (Homo sapiens); pull-down).
`B5 (VIP1 165-341)` — result for binding: “binds” (FASS (Arabidopsis thaliana, UniProt Q9FEE2); pull-down).
For `B6 (POL30 1-258)`, binding read “binds” (CTF18 (Saccharomyces cerevisiae, UniProt P49956); cryo-EM).
`B7 (GST-OsCIPK23)` — result for binding: “binds” (OsAKT1 C-terminal 438-935 (Oryza sativa, UniProt Q0JKV1); pull-down).
`VVPGQFDDADSSD (RIOK1 residues 11-23; N-acetyl, C-terminal amide)`: binding “binds” (PRMT5/WDR77 fragment (Homo sapiens); crystal structure; peptide).
`B8 (rga7 33-307)`: binding “binds” (rga8 1-420 (Schizosaccharomyces pombe, UniProt Q09697); pull-down).
`B9 (TFC1 1-649)` — result for binding: “binds” (TFC3 1-1160 (Saccharomyces cerevisiae, UniProt P34111); cryo-EM).
Under binding, `B10` is recorded as “binds” (Fem1b N26E (Mus musculus, UniProt Q9Z2G0); fluorescence polarisation).
For `ARTKQTARKSTGGKAY (histone H3 residues 1-15; K9me3)`, binding read “binds” (ATRX 1-321 Y203A (Homo sapiens, UniProt P46100); ITC; peptide; 25 °C).
Under binding, `B11 (INF2 941-1249)` is recorded as “binds” (INF2 fragment (Homo sapiens); fluorescence polarisation; apparent).
`GEVAKAAKVKC (IL1RAP 339-348 (Homo sapiens); cyclic, C-terminal amide, acetylated N-terminus)`: binding “binds” (IL1RL1/IL33 ST2 , IL-33 19-328; pull-down; peptide).
For `DSNTRILIGSLVAIIFILLAIIVIILWRQFWQK (DDR2 395-427 C404S (Homo sapiens, UniProt Q16832); sequence looked up)`, binding read “binds” (DDR1 413-445 C422S/M437V (Homo sapiens, UniProt Q08345); NMR titration).
Under binding, `KESALRKQDLLLQFDPLLR (TACC3 to 568 550-568 S558D/Y560L/K562Q (Homo sapiens, UniProt Q9Y6A5); sequence looked up)` is recorded as “binds” (CLTC 358-574 (Homo sapiens, UniProt Q00610); peptide array; peptide).
`B12 (prw1 1-431)`: binding “binds” (pst2 1-1075 (Schizosaccharomyces pombe, UniProt O13919); cryo-EM).
For `B13 (PSMD10 1-226 G214E)`, binding read “binds” (Mdm2 (Mus musculus, UniProt P23804); pull-down).
`B14 (RAD1)` — result for binding: “binds” (LIG1 (Homo sapiens, UniProt P18858); pull-down; 1 hr, 4 °C).
`B15 (lptC 24-191)`: binding “binds” (LptB2FG C204A/C28S/C91T, MTSL spin label (Escherichia coli, UniProt P0A9V1); CW EPR spectroscopy; in nanodiscs).
